Measured values pooled from the literature.
Each line is one published result; not all experiments were run side by side.

Fc1ccc2c(c1)c1nc3ccc(Br)cc3c-1cn2Cc1cn(Cc2ccc(Cl)cc2)nn1
selectivity index (Giardia duodenalis; reference: Caco-2 CC50 over Giardia IC50): 4.8

COc1ccc(CNc2nc(N3CCC[C@H]3CO)ncc2C(=O)NN)cc1Cl
toxicity (Salmonella typhimurium; Ames test; TA98, TA100, TA1535, TA102, TA97a; 5000, 2500, 1600 µg/plate, preliminary test): toxic

c1ccc(CN2CCOCCOCCN(CCCCCCCCCCCCCCN3CCOCCOCCN(CCCCCCCCCCCCCCN4CCOCCOCCN(Cc5ccccc5)CCOCCOCC4)CCOCCOCC3)CCOCCOCC2)cc1
membrane permeability (Escherichia coli; propidium iodide uptake; tetracycline-resistant; 1/2 MIC): increased

COC(=O)C(CCC(=O)O)NC(=O)C1OC(OC2C(OC3CCC4(C)C(CCC5(C)C4C(=O)C=C4C6CC(C)(C(=O)O)CCC6(C)CCC45C)C3(C)C)OC(C(=O)NC(CCC(=O)O)C(=O)OC)C(O)C2O)C(O)C(O)C1O (stereo not drawn)
therapeutic index (Epstein-Barr virus; superinfected Raji cells; reference: CC50 over EC50): 30

CC12CC(O)C3CC1(OC1OC(CO)C(O)C(O)C1O)C3(COC(=O)c1ccccc1)C(=O)O2 (stereo not drawn)
conversion (Enterococcus faecalis; rat gut microbiota; 12 h, anaerobic, SD rat microbiota 100%): 45.4%

O=C(Cn1cc(Cn2cc3c4cc(Br)ccc4nc-3c3cc(F)ccc32)nn1)N1CCCCC1
selectivity index (Giardia duodenalis; reference: Caco-2 CC50 over Giardia IC50): 2

O=C1C=C(Br)/C(=C/Br)O1
growth-inhibitory concentration (Escherichia coli; OD600; JLD271 LasR reporter): ≥ 20 µM

COc1ccc(Cn2cc(Cn3cc4c5cc(Br)ccc5nc-4c4cc(F)ccc43)nn2)cc1
selectivity index (Giardia duodenalis; reference: Caco-2 CC50 over Giardia IC50): 7.4

COC(=O)C(C)NC(=O)C1OC(OC2C(OC3CCC4(C)C(CCC5(C)C4C(=O)C=C4C6CC(C)(C(=O)O)CCC6(C)CCC45C)C3(C)C)OC(C(=O)NC(C)C(=O)OC)C(O)C2O)C(O)C(O)C1O (stereo not drawn)
therapeutic index (Epstein-Barr virus; superinfected Raji cells; reference: CC50 over EC50): 67

Repeated from above:
COC(=O)C(CCC(=O)O)NC(=O)C1OC(OC2C(OC3CCC4(C)C(CCC5(C)C4C(=O)C=C4C6CC(C)(C(=O)O)CCC6(C)CCC45C)C3(C)C)OC(C(=O)NC(CCC(=O)O)C(=O)OC)C(O)C2O)C(O)C(O)C1O (stereo not drawn)
therapeutic index (Epstein-Barr virus; superinfected Raji cells; reference: CC50 over EC50): 30
